# Experimental data collected from several papers.
# Each line is one published result; not all experiments were run side by side.
# Target: Carbonic anhydrase 9 (CA9, Homo sapiens, UniProt Q16790)
Compound,test,measurement,result
COCCOc1cc2ncnc(Nc3cccc(-c4cn(Cc5ccc(C(=O)Nc6cccc(S(N)(=O)=O)c6)cc5)nn4)c3)c2cc1OCCOC,"enzyme activity, inhibitor, stopped-flow",Ki,561 nM
Cc1ccc(S(=O)(=O)NC(C)c2ccccc2)cc1 (stereo not drawn),"enzyme activity, inhibitor",IC50,2010 nM
Cc1cc(C)cc(C(=O)Nc2cccc(S(N)(=O)=O)c2)c1,"enzyme activity, inhibitor",IC50,14600 nM
NS(=O)(=O)c1ccc(NC(=O)NN[C@@H]2OC[C@@H](O)[C@H](O)[C@H]2O)cc1,"enzyme activity, inhibitor",IC50,88 nM
O=c1ccc2cc(OC3O[C@H](CO)[C@@H](O)[C@H](O)[C@H]3O)c(OC3O[C@H](CO)[C@@H](O)[C@H](O)[C@H]3O)cc2o1 (stereo partly drawn),"enzyme activity, inhibitor",IC50,1010 nM
Cc1ccc(S(=O)(=O)Nc2ccccc2Sc2ccccc2)cc1,"enzyme activity, inhibitor",IC50,770 nM
C[C@@H]1O[C@H](NC(=O)c2ccc(S(N)(=O)=O)cc2)[C@H](O)[C@H](O)[C@H]1O,"enzyme activity, inhibitor, absorbance",IC50,760 nM
COCCOc1cc2ncnc(Nc3cccc(-c4cn(-c5ccc(S(N)(=O)=O)cc5)nn4)c3)c2cc1OCCOC,"enzyme activity, inhibitor, stopped-flow",Ki,18.5 nM
NS(=O)(=O)c1ccc(NC(=O)NN[C@@H]2O[C@H](CO)[C@@H](O)[C@H](O)[C@H]2O)cc1,"enzyme activity, inhibitor",IC50,51 nM
NS(=O)(=O)c1ccc(N/N=C2\C(=O)N(CC(=O)Nc3ccccc3Cl)c3ccccc32)cc1,,Ki,673 nM
NS(=O)(=O)c1ccc(CCn2c(SCC(=O)N/N=C/c3ccccc3O)nc3ccccc3c2=O)cc1,"enzyme activity, inhibitor, stopped-flow",Ki,14.7 nM
C[C@@H]1O[C@@H](NNC(=O)Nc2ccc(S(N)(=O)=O)cc2)[C@H](O)[C@H](O)[C@H]1O,"enzyme activity, inhibitor",IC50,128 nM
COCCOc1cc2ncnc(Nc3cccc(-c4cn(CC(=O)Nc5cccc(S(N)(=O)=O)c5)nn4)c3)c2cc1OCCOC,"enzyme activity, inhibitor, stopped-flow",Ki,393 nM
COc1ccc(NC(=O)CN2C(=O)/C(=N\Nc3ccc(S(N)(=O)=O)cc3)c3ccccc32)cc1,,Ki,598 nM
COc1cc2ccc(=O)oc2cc1OC1OC(COC2OCC(O)(CO)C2O)C(O)C(O)C1O (stereo not drawn),"enzyme activity, inhibitor",Ki,77.2 nM

# Excerpt of the above:
Compound,test,measurement,result
Cc1cc(C)cc(C(=O)Nc2cccc(S(N)(=O)=O)c2)c1,"enzyme activity, inhibitor",IC50,14600 nM
NS(=O)(=O)c1ccc(CCn2c(SCC(=O)N/N=C/c3ccccc3O)nc3ccccc3c2=O)cc1,"enzyme activity, inhibitor, stopped-flow",Ki,14.7 nM
